Published values from different studies.
Parts stem from different laboratories: compare values within a part only.

Protein sequences, listed by entry. Tags and fused reporters are not part of them. Residues count along the entry.
UniProt Q9JKC1, 24-597 limits assumed: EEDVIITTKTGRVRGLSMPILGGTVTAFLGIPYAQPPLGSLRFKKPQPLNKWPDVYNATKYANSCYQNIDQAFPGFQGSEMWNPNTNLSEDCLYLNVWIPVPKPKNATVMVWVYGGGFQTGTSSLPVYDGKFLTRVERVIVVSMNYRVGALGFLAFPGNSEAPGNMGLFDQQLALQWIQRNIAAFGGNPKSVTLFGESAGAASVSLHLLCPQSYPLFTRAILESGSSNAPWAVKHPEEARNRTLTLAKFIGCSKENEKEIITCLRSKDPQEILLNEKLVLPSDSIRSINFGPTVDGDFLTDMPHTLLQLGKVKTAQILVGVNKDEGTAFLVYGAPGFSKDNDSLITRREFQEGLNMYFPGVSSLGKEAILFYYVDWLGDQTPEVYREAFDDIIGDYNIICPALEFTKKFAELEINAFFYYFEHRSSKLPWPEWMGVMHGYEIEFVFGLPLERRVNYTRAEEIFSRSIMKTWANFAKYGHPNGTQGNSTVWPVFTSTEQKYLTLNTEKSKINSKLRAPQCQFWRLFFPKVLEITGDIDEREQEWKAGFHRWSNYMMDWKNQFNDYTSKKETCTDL

Set 1
Organism: SARS-CoV-2
Cell line: Vero
Tested at: 10 µM
Endpoint: viral reduction
COc1cc(C2C(C#N)=C(N)Oc3c2c(C)nn3-c2ccc(Cl)cc2)ccc1O (centres unmarked): 7.24%
Cc1nn(-c2ccc(Cl)cc2)c2c1C(c1cc(Cl)ccc1Cl)C(C#N)=C(N)O2 (centres unmarked): 4.68%
Cc1nn(-c2ccc(Cl)cc2)c2c1C(c1ccc(O)cc1)C(C#N)=C(N)O2 (centres unmarked): 16.9%
CCOc1ccc(C2C(C#N)=C(N)Oc3c2c(C)nn3-c2ccc(Cl)cc2)cc1 (centres unmarked): 10.2%

Other studies, line by line
C[C@H](NC(=O)[C@H](c1cccnc1)N(C(=O)CC#N)c1ccc(-c2ccccc2)cc1)c1ccccc1 — IC50 (Replicase polyprotein 1ab, main protease (rep, Severe acute respiratory syndrome coronavirus 2, UniProt P0DTD1); enzyme activity, inhibitor): > 20000 nM
CC[C@H](C)[C@H]1O[C@]2(C=C[C@@H]1C)C[C@@H]1C[C@@H](C/C=C(\C)[C@@H](O[C@H]3C[C@H](OC)[C@@H](O[C@H]4C[C@H](OC)[C@@H](O)[C@H](C)O4)[C@H](C)O3)[C@@H](C)/C=C/C=C3\CO[C@@H]4[C@H](O)C(C)=C[C@@H](C(=O)O1)[C@]34O)O2 — Kd (Spike glycoprotein (Severe acute respiratory syndrome coronavirus 2, UniProt P0DTC2); biolayer interferometry; screening): 24100 nM
COP(=O)(OC)Oc1ccc([N+](=O)[O-])cc1Cl — IC50 (Bche (Rattus norvegicus, UniProt Q9JKC1); inhibitor; rat, postnatal day 1, rat serum): 58 nM
CCC(CC)O[C@@H]1C=C(C(=O)O)C[C@H](N)[C@H]1NC(C)=O — IC50 (Neuraminidase (Influenza A virus, UniProt A0A024E3Q2); neuraminidase activity): 1.87 nM

Repeated from above (set 1):
Cc1nn(-c2ccc(Cl)cc2)c2c1C(c1ccc(O)cc1)C(C#N)=C(N)O2 (centres unmarked): 16.9%
